Measurements gathered from unrelated publications.
Compare with care: the assays were run in different laboratories. “And” joins repeats or separate records; there may be more than shown. ± marks the error that the study gave.
Chain of UniProt Q13936 (whole entry, looked up): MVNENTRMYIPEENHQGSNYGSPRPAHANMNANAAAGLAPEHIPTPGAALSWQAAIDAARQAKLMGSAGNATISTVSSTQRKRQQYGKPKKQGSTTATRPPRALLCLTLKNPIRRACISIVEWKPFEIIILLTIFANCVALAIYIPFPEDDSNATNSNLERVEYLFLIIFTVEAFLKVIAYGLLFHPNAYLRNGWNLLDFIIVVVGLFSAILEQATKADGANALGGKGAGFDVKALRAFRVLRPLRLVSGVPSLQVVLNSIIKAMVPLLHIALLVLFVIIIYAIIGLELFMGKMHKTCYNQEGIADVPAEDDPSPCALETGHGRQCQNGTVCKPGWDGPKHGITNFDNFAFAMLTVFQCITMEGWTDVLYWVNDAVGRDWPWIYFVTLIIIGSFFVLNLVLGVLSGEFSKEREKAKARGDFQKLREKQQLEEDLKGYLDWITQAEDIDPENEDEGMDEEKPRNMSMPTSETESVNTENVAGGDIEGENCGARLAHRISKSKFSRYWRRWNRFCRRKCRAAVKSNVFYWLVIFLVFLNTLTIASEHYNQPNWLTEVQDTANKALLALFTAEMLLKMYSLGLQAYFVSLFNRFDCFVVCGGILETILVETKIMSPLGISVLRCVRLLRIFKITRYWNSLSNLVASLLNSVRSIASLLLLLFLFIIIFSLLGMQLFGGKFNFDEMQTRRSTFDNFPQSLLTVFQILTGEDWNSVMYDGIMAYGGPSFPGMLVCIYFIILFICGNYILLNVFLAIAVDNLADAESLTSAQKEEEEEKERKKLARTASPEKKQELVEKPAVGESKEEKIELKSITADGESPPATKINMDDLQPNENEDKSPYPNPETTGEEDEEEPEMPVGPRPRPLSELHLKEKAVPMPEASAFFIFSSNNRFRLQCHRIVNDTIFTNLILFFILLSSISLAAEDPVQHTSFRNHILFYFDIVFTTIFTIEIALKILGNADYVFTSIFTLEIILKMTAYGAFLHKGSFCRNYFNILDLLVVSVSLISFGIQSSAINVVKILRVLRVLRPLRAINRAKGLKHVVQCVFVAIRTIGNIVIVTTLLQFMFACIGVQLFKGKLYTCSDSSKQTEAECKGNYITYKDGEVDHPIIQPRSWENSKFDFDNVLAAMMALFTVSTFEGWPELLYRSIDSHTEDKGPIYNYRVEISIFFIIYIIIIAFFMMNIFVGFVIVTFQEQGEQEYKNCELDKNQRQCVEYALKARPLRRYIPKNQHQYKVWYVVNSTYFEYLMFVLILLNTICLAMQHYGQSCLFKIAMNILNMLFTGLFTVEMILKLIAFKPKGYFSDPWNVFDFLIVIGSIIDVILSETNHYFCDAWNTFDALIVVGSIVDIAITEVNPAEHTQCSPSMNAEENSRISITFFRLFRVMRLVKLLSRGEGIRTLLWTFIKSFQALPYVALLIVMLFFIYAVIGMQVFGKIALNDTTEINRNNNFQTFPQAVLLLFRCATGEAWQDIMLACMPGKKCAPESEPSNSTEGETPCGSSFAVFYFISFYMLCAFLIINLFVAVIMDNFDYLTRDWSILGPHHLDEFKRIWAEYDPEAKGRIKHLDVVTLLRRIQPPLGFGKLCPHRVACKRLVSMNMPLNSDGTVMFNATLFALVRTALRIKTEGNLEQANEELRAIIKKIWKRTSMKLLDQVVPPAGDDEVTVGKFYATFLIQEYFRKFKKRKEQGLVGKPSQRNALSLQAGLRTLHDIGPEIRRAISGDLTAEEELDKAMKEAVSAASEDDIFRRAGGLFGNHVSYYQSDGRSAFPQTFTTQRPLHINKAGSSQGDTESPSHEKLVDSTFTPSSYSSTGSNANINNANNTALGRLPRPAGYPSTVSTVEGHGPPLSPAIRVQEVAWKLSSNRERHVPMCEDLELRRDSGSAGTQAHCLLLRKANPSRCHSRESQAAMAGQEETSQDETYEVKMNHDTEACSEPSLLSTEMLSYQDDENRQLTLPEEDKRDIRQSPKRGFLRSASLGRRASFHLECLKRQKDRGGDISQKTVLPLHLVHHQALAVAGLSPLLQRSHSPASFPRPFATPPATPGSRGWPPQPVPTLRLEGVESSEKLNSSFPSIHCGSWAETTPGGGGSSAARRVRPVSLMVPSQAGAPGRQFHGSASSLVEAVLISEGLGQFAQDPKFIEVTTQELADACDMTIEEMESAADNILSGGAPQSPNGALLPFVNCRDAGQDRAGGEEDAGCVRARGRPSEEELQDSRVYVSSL
Chain of UniProt Q01959 (whole entry, looked up): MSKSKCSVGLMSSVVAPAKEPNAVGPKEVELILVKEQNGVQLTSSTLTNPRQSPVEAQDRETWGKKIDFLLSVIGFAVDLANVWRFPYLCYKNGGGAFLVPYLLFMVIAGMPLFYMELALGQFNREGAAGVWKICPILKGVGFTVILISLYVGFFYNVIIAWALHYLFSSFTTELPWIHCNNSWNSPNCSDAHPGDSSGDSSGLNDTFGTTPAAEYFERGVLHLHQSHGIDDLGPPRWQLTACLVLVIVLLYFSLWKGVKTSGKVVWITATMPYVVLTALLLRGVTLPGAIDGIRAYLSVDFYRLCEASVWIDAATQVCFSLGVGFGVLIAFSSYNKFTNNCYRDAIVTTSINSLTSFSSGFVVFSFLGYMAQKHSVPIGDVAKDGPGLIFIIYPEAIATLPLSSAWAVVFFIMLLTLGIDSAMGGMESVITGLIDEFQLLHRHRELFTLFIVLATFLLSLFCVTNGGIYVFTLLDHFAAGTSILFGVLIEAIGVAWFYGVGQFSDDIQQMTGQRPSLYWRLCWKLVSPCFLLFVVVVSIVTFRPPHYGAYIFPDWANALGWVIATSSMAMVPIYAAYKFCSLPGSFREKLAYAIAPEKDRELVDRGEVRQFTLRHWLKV
Chain of UniProt Q15858 (whole entry, looked up): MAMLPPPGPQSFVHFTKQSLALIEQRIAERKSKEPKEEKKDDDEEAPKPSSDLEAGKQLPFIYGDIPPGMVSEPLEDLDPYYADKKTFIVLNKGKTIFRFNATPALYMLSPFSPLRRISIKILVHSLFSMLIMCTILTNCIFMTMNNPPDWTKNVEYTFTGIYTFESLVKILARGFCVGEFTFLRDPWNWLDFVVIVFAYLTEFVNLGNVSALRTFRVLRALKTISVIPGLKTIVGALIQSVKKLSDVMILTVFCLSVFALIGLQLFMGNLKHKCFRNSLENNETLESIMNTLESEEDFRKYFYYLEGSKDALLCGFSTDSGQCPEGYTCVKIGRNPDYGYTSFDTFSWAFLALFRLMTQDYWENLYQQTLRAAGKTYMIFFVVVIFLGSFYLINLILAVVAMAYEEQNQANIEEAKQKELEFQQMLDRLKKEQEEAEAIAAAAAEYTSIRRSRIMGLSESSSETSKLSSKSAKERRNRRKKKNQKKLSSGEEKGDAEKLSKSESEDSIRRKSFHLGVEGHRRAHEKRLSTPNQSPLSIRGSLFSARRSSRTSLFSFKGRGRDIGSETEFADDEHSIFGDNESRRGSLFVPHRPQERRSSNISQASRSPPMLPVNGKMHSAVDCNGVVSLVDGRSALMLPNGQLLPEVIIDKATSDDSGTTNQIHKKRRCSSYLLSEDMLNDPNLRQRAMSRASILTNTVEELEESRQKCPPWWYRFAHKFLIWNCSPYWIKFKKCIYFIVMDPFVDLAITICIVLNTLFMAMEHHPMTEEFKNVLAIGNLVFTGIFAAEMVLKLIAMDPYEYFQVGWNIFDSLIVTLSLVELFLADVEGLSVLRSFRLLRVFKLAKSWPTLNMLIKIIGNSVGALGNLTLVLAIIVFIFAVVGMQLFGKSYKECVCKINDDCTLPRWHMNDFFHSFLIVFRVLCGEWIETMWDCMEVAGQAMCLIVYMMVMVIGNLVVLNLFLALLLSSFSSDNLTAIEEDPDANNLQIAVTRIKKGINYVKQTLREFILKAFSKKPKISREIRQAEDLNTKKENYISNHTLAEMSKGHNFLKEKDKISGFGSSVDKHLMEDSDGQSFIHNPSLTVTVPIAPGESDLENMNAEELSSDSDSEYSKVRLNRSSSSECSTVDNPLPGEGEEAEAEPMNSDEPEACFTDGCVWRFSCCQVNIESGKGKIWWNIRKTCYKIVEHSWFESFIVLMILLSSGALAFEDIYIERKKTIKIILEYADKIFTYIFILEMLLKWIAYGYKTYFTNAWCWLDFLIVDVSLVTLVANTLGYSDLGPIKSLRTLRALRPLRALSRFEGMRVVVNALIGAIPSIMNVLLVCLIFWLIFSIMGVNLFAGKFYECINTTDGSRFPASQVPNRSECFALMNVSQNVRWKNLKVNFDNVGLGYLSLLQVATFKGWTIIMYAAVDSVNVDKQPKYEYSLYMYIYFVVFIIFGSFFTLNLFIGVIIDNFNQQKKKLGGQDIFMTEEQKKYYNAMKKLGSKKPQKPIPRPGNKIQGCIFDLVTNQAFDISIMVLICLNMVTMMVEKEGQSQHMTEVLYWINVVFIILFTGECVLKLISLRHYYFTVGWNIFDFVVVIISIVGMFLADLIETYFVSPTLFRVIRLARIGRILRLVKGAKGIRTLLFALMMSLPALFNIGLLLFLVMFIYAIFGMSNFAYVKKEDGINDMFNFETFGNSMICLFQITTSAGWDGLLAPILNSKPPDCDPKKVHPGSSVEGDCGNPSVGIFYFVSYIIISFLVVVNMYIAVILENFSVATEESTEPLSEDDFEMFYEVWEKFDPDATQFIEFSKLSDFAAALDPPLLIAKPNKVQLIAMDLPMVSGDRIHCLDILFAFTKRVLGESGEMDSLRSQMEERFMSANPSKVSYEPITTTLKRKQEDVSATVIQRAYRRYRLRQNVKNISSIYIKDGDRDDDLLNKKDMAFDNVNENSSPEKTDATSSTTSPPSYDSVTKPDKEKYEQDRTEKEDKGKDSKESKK

| Structure (SMILES) | target | test | test system | setting | inhibition |
| --- | --- | --- | --- | --- | --- |
| O=c1c(O)cc([C@H]2Oc3cc(O)cc(O)c3C[C@H]2O)cc2c([C@H]3Oc4cc(O)cc(O)c4C[C@H]3O)cc(O)c(O)c12 | alpha-amylase | enzyme activity, inhibitor, DNS method | – | 100 µg/mL, with: soluble starch | 67.5% |
| CC1=NN(c2ccccn2)C(=O)C1=NNc1ccc(S(N)(=O)=O)cc1 | bovine α-glucosidase | enzyme activity, inhibitor, glucose oxidase | – | 10 µg/mL, with: maltose | 25.065 ± 0.00102% |
| NC/C(=C\F)COc1cccc(Cn2c(=S)[nH]c(=O)c3[nH]cnc32)c1 | CACNA1C (Homo sapiens, UniProt Q13936) | peak ramp current, inhibitor, patch clamp | human cells | 30 µM, pulse 10 | 17.4% and 16.8% and 8.2% |
| Cc1ccc(C(=O)Nc2ccc3ccccc3c2)o1 | SCN9A (Homo sapiens, UniProt Q15858) | ion current, whole-cell patch-clamp | – | 10 µM, hNaV1.7 | 4.18% |
| CC1=NN(c2cccc(C)c2)C(=O)C1=NNc1ccc(S(N)(=O)=O)cc1 | bovine α-glucosidase | enzyme activity, inhibitor, glucose oxidase | – | 50 µg/mL, with: maltose | 31% |
| Cc1cc2c(cc1N1C(=O)c3cccc4c(CCCO)ccc(c34)C1=O)n(C)c(=O)n2C (racemic) | BRD7 (Homo sapiens, UniProt Q9NPI1) | binding, BROMOscan binding | – | 100 nM | 68% |
| O=C(NO)c1ccc(CN2CCCCc3ccccc32)c(F)c1 | SLC6A3 (Homo sapiens, UniProt Q01959) | radioligand binding, radioligand displacement | – | 10 µM, mean of replicates | -51.3% |
| CC1=NN(c2ccc(Cl)cc2)C(=O)C1=NNc1ccc(S(N)(=O)=O)cc1 | bovine α-glucosidase | enzyme activity, inhibitor, glucose oxidase | – | 50 µg/mL, with: maltose | 35.9% |
| COc1ccc(C(=O)c2cc3c(-c4ccccc4)c(O)ccc3o2)cc1 | tubulin | [3H]colchicine binding, inhibitor | – | 1 µM, with: 5 µM [3H]colchicine | 39% |
| Cc1nn(-c2nc3c(F)cc(F)cc3s2)c(O)c1C(c1ccc(C(F)(F)F)cc1)c1c(C)nn(-c2nc3c(F)cc(F)cc3s2)c1O | Cyclic GMP-AMP synthase, catalytic domain; with DNA (CGAS, Homo sapiens, UniProt Q8N884) | cGAS phase separation, inhibitor | – | 1.563 µM | 21.1% |

For quick reference, copied from above:
| Structure (SMILES) | target | test | test system | setting | inhibition |
| --- | --- | --- | --- | --- | --- |
| O=C(NO)c1ccc(CN2CCCCc3ccccc32)c(F)c1 | SLC6A3 (Homo sapiens, UniProt Q01959) | radioligand binding, radioligand displacement | – | 10 µM, mean of replicates | -51.3% |
